Experimental data pooled from the literature.
Protocols differ between the studies behind these lines. Values joined by “and” are separate records of one study, mostly repeats; a detail may differ. ± gives the spread as reported.
CASP9: Caspase-9 (CASP9, Homo sapiens, UniProt P55211)
Lysophospholipase-like protein 1: Lysophospholipase-like protein 1 (Mus musculus, UniProt Q3UFF7)
DHODH: Dihydroorotate dehydrogenase (quinone), mitochondrial (DHODH, Homo sapiens, UniProt Q02127)
USP5: Ubiquitin carboxyl-terminal hydrolase 5 (USP5, Homo sapiens, UniProt P45974)
CASP4: Caspase-4 (CASP4, Homo sapiens, UniProt P49662)

CCN(CC)C(CO)c1cccc2c(C)c(C)oc12 (stereo not shown)
fold change (Lysophosphatidic acid receptor 1 (LPAR1, Homo sapiens, UniProt Q92633, W271A); G-protein dissociation, agonist, NanoBiT; HEK-293T; 1 µM, W271A mutant; baseline: baseline luminescence): 0.71 and 0.487 and 0.58 and 1 and 0.662 and 0.935

CC(=O)N[C@@H](CC(C)C)C(=O)N[C@@H](CCC(=O)O)C(=O)N[C@@H](Cc1c[nH]cn1)C(=O)N[C@@H](CC(=O)O)C(=O)COC(=O)c1c(C)cccc1C
kinact/KI (CASP9; enzyme activity, inhibitor): 73900 M⁻¹ s⁻¹

Nc1nc(SCc2ccc(Cl)cc2)nn1S(=O)(=O)c1cccc(Cl)c1
probe labeling increase (Lysophospholipase-like protein 1; enzyme activity, activator, gel-based ABPP; purified protein; concentration not given, added: FP-rhodamine; baseline: DMSO): 2.7 fold

CCCCCCCCCCCCCCCC(=O)OCC(CSC[C@H](N)C(=O)N[C@@H](CO)C(=O)N[C@@H](CCCCN)C(=O)N[C@@H](CCCCN)C(=O)N[C@@H](CCCCN)C(=O)N[C@@H](CCCCN)C(=O)NCCCCCC(=O)N[C@@H](CCCCN)C(=O)N[C@@H](CC(C)C)C(=O)N[C@H](C(=O)N[C@@H](Cc1ccccc1)C(=O)N[C@@H](Cc1ccccc1)C(=O)N[C@@H](Cc1ccc2ccccc2c1)C(=O)O)C(C)C)OC(=O)CCCCCCCCCCCCCCC (stereo partly shown)
fibril diameter (Amyloid-beta precursor protein, fibrillar amyloid-beta (APP, Homo sapiens, UniProt P05067); TEM; 2.0 eq, 3 h, fibril 7, added: APP 20 µM): 38.5 nm

CC(C)N(CCCNC(=O)Nc1ccc(C(C)(C)C)cc1)C[C@H]1O[C@@H](n2cnc3c(NCCCCNC(=O)CCOCCOCCOCCOCCOCCOCCOCCOCCOCCOCCOCCOCCNC(=O)CCCC[C@@H]4SC[C@@H]5NC(=O)N[C@@H]54)ncnc32)[C@H](O)[C@@H]1O
Tm (Histone-lysine N-methyltransferase, H3 lysine-79 specific (DOT1L, Homo sapiens, UniProt Q8TEK3); binding, differential scanning fluorimetry; protein 1 µM): 14 °C

CCCCCCCCCCCCC/C=C/C=O
isoTOP-ABPP competition ratio (MIF4G domain-containing protein (MIF4GD, Homo sapiens, UniProt A9UHW6); competitive isoTOP-ABPP, refers to: MIF4GD cysteine peptide; proteome, soluble, MDA-MB-231; 100 µM, added: iodoacetamide probe; baseline: DMSO over compound-treated, higher = stronger cysteine blockade): 1.1

CC[C@H](C)[C@H](NC(C)=O)C(=O)N[C@@H](CCC(=O)O)C(=O)N[C@H](C(=O)N[C@@H](CC(=O)O)C(=O)COC(=O)c1c(C)cccc1C)[C@@H](C)O
kinact/KI (CASP9; enzyme activity, inhibitor): 56200 M⁻¹ s⁻¹

CC(C)[C@H](NC(=O)[C@H](Cc1ccccc1)NC(=O)c1ccc(C(C)(C)C)cc1)C(=O)N[C@@H](CCN1CCOCC1)C(=O)N[C@@H](CCCCN(C)C1CC2CCC1C2)C(=O)N[C@@H](CO)C(N)=O (stereo partly shown)
selectivity ratio (Chromobox protein homolog 8 (Homo sapiens, UniProt Q9HC52); TR-FRET displacement; baseline: IC50 CBX7 over IC50 CBX8): 24

CC(=O)N[C@H](C(=O)N[C@@H](CCCNC(N)=O)C(=O)N[C@@H](CCO)C(=O)N[C@@H](CC(=O)O)C(=O)COC(=O)c1c(C)cccc1C)C1CCCCC1
kinact/KI (CASP9; enzyme activity, inhibitor): 16200 M⁻¹ s⁻¹

CSCC[C@H](NC(=O)[C@H](CC(=O)O)NC(C)=O)C(=O)N[C@@H](Cc1ccc(O)cc1)C(=O)N[C@@H](Cc1ccc(O)cc1)C(=O)N[C@@H](CCCNC(=N)N)C(=O)N[C@@H](Cc1ccc(O)cc1)C(=O)N[C@@H](CC(N)=O)C(=O)NCC(=O)N[C@@H](CCCCN)C(=O)N[C@H](C(=O)N[C@@H](Cc1c[nH]c2ccccc12)C(=O)N[C@@H](Cc1c[nH]c2ccccc12)C(=O)N[C@@H](CCCNC(=N)N)C(=O)O)C(C)C
α-helix content (Insulin (INS, Bos taurus, UniProt P01317); circular dichroism; INS-peptide complex; 800 min, final heating stage, added: INS 350 µM): 12%

CN(/N=C/c1ccc(F)cc1C(=O)NO)c1nc(-c2ccccc2Cl)cs1
percent effect (DHODH; enzyme activity, inhibitor, DCIP colorimetric; 123.46 nM): 10.8% and 13.9% and 9.88%

NS(=O)(=O)c1ccc(CN2C(=O)c3ccc(N4CCOCC4)cc3C2=O)cc1
fluorescence turn-on (Carbonic anhydrase 2 (CA2, Homo sapiens, UniProt P00918); binding; 2 µM, pH 7.2; baseline: without protein): 2.8 ± 0.1 fold

Nc1nc(SCc2ccc(Cl)cc2)nn1S(=O)(=O)c1ccc(F)cc1
probe labeling increase (Lysophospholipase-like protein 1; enzyme activity, activator, gel-based ABPP; purified protein; concentration not given, added: FP-rhodamine; baseline: DMSO): 2.1 fold

CCOc1ccc(S(=O)(=O)N=C2CC(Sc3nc[nH]n3)C(=O)c3ccccc32)cc1 (stereo not shown)
inhibition (USP5; enzyme activity, inhibitor; 17 µM): 84%

CC(=O)N1C[C@H](O)C[C@H]1C(=O)N[C@H](C(=O)N[C@@H](CO)C(=O)N[C@@H](CC(=O)O)C(=O)COC(=O)c1c(C)cccc1C)C(C)C
kinact/KI (CASP4; enzyme activity, inhibitor): 600 M⁻¹ s⁻¹

[3H]C([3H])([3H])OC1(C2=NCCN2)COc2ccccc2O1 (stereo not shown)
Bmax (Alpha-2C adrenergic receptor (Mus musculus, UniProt Q01337); [3H]compound saturation binding; HEK293 membranes): 17.1 ± 0.4 pmol/mg protein

COc1nncc(-c2cnnc(SC)n2)n1
inhibition (USP5; enzyme activity, inhibitor; 17 µM): 36%

N#CN1CC[C@H](C(=O)Nc2nc3c(s2)CN(C(=O)Cn2cc(CNC(=O)CCCC[C@@H]4SC[C@@H]5NC(=O)N[C@@H]54)nn2)CC3)C1
iBAQ abundance (USP5; probe binding, affinity probe, neutravidin pull-down LC-MS/MS; HEK293T, cell lysate; 5 µM, 1 h, mean of three replicates, unit not given; higher = more pulled down): 1.12e+06

CC(=O)N[C@@H](CC(C)C)C(=O)N[C@H](C(=O)N[C@@H](Cc1c[nH]cn1)C(=O)N[C@@H](CC(=O)O)C(=O)COC(=O)c1c(C)cccc1C)C(C)(C)C
kinact/KI (CASP9; enzyme activity, inhibitor): 37800 M⁻¹ s⁻¹

CN(Cc1cc(C2CC2)on1)C(=O)c1cccc(-c2ccc3c(c2)CCO3)c1
reaction rate (Acetyl-coenzyme A synthetase, cytoplasmic (ACSS2, Homo sapiens, UniProt Q9NR19); enzyme activity, inhibitor, coupled pyrophosphate; 6.25 µM; higher is more activity): 0.00333 a.u.

CC(C)Oc1cc(Cl)ccc1CNc1cc(-c2ccccc2)nc2ncnn12
potency reduction (G-protein coupled receptor 3 (GPR3, Homo sapiens, UniProt P46089, M156A); agonist, cAMP GloSensor; concentration not given, M156A mutant; baseline: wild type): 5 fold

O=C1N/C(=N\c2ccc(F)cc2C(=O)O)S/C1=C\c1ccccc1
reaction rate (DHODH; enzyme activity, inhibitor, DCIP reduction; 0.1 µM; higher = more activity): -39 a.u.

Cc1cc(C)cc(COc2cc3c(cc2OCc2cc(C)cc(C)c2)C2CC(O)(Cc4cn(CCOCCOCCNC(=O)CCCCC5SCC6NC(=O)NC65)nn4)CC(C)N2CC3)c1 (stereo not shown)
SILAC ratio (RAB9A (Homo sapiens, UniProt P51151); biotinylated probe pull-down; 10 µM probe; baseline: heavy over light): 1.47

O=C(Nc1ccc(N2CCOCC2)c2nonc12)c1cccs1
inhibition (USP5; enzyme activity, inhibitor; 17 µM): 55%

COc1cc(Nc2nccc(-c3cnn4nc(OC)ccc34)n2)cc(C(F)(F)F)c1
remaining binding (Epidermal growth factor receptor (EGFR, Homo sapiens, UniProt P00533, del747-750/T751S); binding; 1 µM): 94%

CCCCCC=CC=C1C(=O)C=CC1CC=CCCCC(=O)O (stereo not shown)
isoTOP-ABPP competition ratio (Large ribosomal subunit protein eL24 (Homo sapiens, UniProt P83731); competitive isoTOP-ABPP; Ramos soluble proteome; 100 µM, 60 min, added: iodoacetamide probe; baseline: DMSO over compound-treated, higher = stronger cysteine blockade): 3.5

CC(=O)N[C@@H](CC(=O)O)C(=O)N[C@@H](CCC(=O)O)C(=O)N[C@H](C(=O)N[C@@H](CC(=O)O)C(=O)COC(=O)c1c(C)cccc1C)[C@@H](C)OCc1ccccc1
kinact/KI (CASP9; enzyme activity, inhibitor): 8200 M⁻¹ s⁻¹

C/C=C/C[n+]1cn(C/C=C\CP(=O)(O)O)c2nc(N)[nH]c(=O)c21
IC50 (Eukaryotic translation initiation factor 4E (EIF4E, Homo sapiens, UniProt P06730); inhibitor, fluorescence polarization; 40 min, added: m7GTP-FAM probe 15 nM): inactive

CC(=O)N[C@@H](Cc1ccc(C)cc1)C(=O)N[C@@H](CCCC(=O)O)C(=O)N[C@H](C(=O)N[C@@H](CC(=O)O)C(=O)COC(=O)c1c(C)cccc1C)C(C)(C)C
kinact/KI (CASP9; enzyme activity, inhibitor): 3500 M⁻¹ s⁻¹

Cc1cc(Cl)cc(-c2ccnc3cc(CN4C(=O)C5C(C4=O)C5(C)C)sc23)c1C[C@@H]1CNCCO1 (stereo partly shown)
binding enthalpy (Ubiquitin carboxyl-terminal hydrolase 7 (USP7, Homo sapiens, UniProt Q93009); ITC; concentration not given, wild-type enzyme): -13.5 ± 0.306 kcal/mol

CC(=O)N[C@@H](CCCNC(=N)N)C(=O)N[C@H](C(=O)N[C@@H](CCCCN)C(=O)N[C@@H](CO)C(=O)N[C@@H](CCCNC(=N)N)C(=O)N[C@H](C(=O)N[C@@H](Cc1c[nH]c2ccccc12)C(=O)N[C@@H](C)C(=O)N[C@@H](Cc1ccccc1)C(N)=O)[C@@H](C)OP(=O)(O)O)[C@@H](C)O
kon (14-3-3 protein epsilon (Homo sapiens, UniProt P62258); binding, SPR): 2.21e+06 M⁻¹ s⁻¹

CC[C@H](C)[C@@H]1NC(=O)[C@H](Cc2ccccc2)NC(=O)[C@H](CCC(=O)O)NC(=O)[C@H](CCCNC(=N)N)NC(=O)CNC(=O)[C@@H](NC(=O)[C@H](CC(C)C)NC(=O)[C@H](CCCNC(=N)N)NC(=O)[C@@H](NC(=O)CNC(=O)[C@H](Cc2ccc(O)cc2)NC(=O)[C@@H]2CCCN2C(=O)[C@H](C)NC(=O)[C@H](C)NC(=O)[C@@H](N)CCCNC(=N)N)C(C)C)CSSC[C@@H]2NC(=O)[C@@H](NC(=O)[C@H](CO)NC(=O)[C@H](CO)NC(=O)[C@H](CO)NC(=O)[C@H](CC(C)C)NC(=O)CNC(=O)[C@H](C)NC(=O)[C@H](CC(C)C)NC(=O)[C@@H](NC(=O)[C@@H](N)CC(=O)O)C(C)C)CSSC[C@H](NC(=O)CNC(=O)[C@H](Cc3c[nH]c4ccccc34)NC(=O)[C@H](CCCCN)NC2=O)C(=O)N[C@@H](CO)C(=O)N[C@@H](CCCCN)C(=O)N[C@@H](CO)C(=O)N[C@@H](CCC(=O)O)C(=O)N[C@@H]([C@@H](C)CC)C(=O)N[C@@H](CO)C(=O)N[C@@H](CO)C(=O)N[C@@H](CC(C)C)C(=O)N[C@H](C(=O)O)CSSC[C@@H](C(=O)NCC(=O)NCC(=O)N[C@@H](CO)C(=O)N[C@@H](CCCNC(=N)N)C(=O)N[C@@H](Cc2c[nH]c3ccccc23)C(=O)O)NC(=O)[C@H]([C@@H](C)O)NC(=O)[C@H](Cc2ccccc2)NC(=O)[C@H]([C@@H](C)CC)NC(=O)[C@H](C(C)C)NC(=O)[C@H](C)NC(=O)[C@H](CCCNC(=N)N)NC1=O
change in pEC50 (Relaxin-3 receptor 2 (RXFP4, Homo sapiens, UniProt Q8TDU9, W97A); agonist; W97A mutant, unit not given; baseline: wild type): -2.78 and -2.43 and -2.72 and -2.83

CC[C@H](NC(=O)[C@H](CC(C)C)NC(=O)[C@H](CC(=O)O)NC(C)=O)C(=O)N[C@@H](CC(=O)O)C(=O)COC(=O)c1c(C)cccc1C
kinact/KI (CASP4; enzyme activity, inhibitor): 16600 M⁻¹ s⁻¹

CC1CCC[S+](c2cc(O)ccc2O)C1 (stereo not shown)
inhibition (USP5; enzyme activity, inhibitor; 17 µM): 91%

C=CC(=O)N1CCCC(n2c(=O)c3ncccc3n(Cc3ccc(Oc4ccccc4)cc3)c2=O)C1 (stereo not shown)
melting temperature (ATP synthase F(1) complex subunit beta, mitochondrial (ATP5F1B, Homo sapiens, UniProt P06576); thermal proteome profiling; cell proteome; treated): 42.4 °C and 46.9 °C

CC1=CC(=O)CN(S(=O)(=O)c2ccc(C)cc2)C1
inhibition (USP5; enzyme activity, inhibitor; 17 µM): 7%

O=C1c2sc(-c3ccc(N4CCC(CO)CC4)nc3F)nc2CCN1c1cccnc1
specific binding (TAR DNA-binding protein 43, aggregated (TARDBP, Homo sapiens, UniProt Q13148); radioligand binding; human, FTLD-TDP type B sarkosyl-insoluble extract; 13.55 nM): 1.36 nM and 1.34 nM

Repeated from above:
CCOc1ccc(S(=O)(=O)N=C2CC(Sc3nc[nH]n3)C(=O)c3ccccc32)cc1 (stereo not shown)
inhibition (USP5; enzyme activity, inhibitor; 17 µM): 84%

CC(=O)N1C[C@H](O)C[C@H]1C(=O)N[C@H](C(=O)N[C@@H](CO)C(=O)N[C@@H](CC(=O)O)C(=O)COC(=O)c1c(C)cccc1C)C(C)C
kinact/KI (CASP4; enzyme activity, inhibitor): 600 M⁻¹ s⁻¹

[3H]C([3H])([3H])OC1(C2=NCCN2)COc2ccccc2O1 (stereo not shown)
Bmax (Alpha-2C adrenergic receptor (Mus musculus, UniProt Q01337); [3H]compound saturation binding; HEK293 membranes): 17.1 ± 0.4 pmol/mg protein

COc1nncc(-c2cnnc(SC)n2)n1
inhibition (USP5; enzyme activity, inhibitor; 17 µM): 36%

N#CN1CC[C@H](C(=O)Nc2nc3c(s2)CN(C(=O)Cn2cc(CNC(=O)CCCC[C@@H]4SC[C@@H]5NC(=O)N[C@@H]54)nn2)CC3)C1
iBAQ abundance (USP5; probe binding, affinity probe, neutravidin pull-down LC-MS/MS; HEK293T, cell lysate; 5 µM, 1 h, mean of three replicates, unit not given; higher = more pulled down): 1.12e+06
